Published values from different studies.
Every numbered part comes from another study and shows a few of its results, in no order.

Set 1
Target: RING finger protein unkempt homolog, zinc fingers 1-6, SBP tag (UNK, Homo sapiens, UniProt Q9C0B0, residues 30-357)
Chain of UniProt Q9C0B0 (30-357, looked up): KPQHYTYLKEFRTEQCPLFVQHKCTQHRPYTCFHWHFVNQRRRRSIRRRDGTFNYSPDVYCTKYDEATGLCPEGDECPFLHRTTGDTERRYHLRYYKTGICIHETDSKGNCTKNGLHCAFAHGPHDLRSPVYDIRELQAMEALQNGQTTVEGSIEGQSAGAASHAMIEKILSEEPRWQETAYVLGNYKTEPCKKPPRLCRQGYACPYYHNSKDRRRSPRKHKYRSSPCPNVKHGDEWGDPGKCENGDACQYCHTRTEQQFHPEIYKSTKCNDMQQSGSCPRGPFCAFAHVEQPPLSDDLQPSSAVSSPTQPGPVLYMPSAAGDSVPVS
Technique: RNA Bind-n-Seq
Form: RNA
Medium: in vitro
Tested at: 100 nM
Setting: RNA with constant flanks, vertebrate orthologous sites, ends assumed
Baseline: input RNA pool
Reading: higher = stronger binding
All sequences stand within: GGGAGUUCUACAGUCCGACGAUC … CAACAGAGGAUUGAGCAUCA
With `AAUCAGUAGGAUUACAAAAUACUAAAGUUGCAGUUGAAAGGAUAUCCAAGUAUGUGUUGGUAGUUACAAAAGAAUUAUAGCUGUUAUUGCCUUGUAUUUAUAGCCCUUGUUUCAGGUUUC` the bound/input enrichment was 1.03 ratio.
The bound/input enrichment of `CUCCCCCUUACCCAUAAAAUAGAACUUUUUAAAAUUGUGUUGCCACCACUUGUUUAAAAAAAUAAAAAAUUAAAAAAAAAAAAAAAAAAAAAAAAAACAACCUUAGCAAUAUUAGGAUAA` is reported as 6.11 ratio.
`UGCUGUUAAUGCACUGUAUUCCAGGCAUCGUCUGAAUUUAGUGUAAUCUAGGAGAUUUUAUAGUUUUAUUUUAAUGAAGUAUGGAUCGAGAAAAAGUUGUUAGGAGUAUGUAGUCUUUUA` has a bound/input enrichment of 2.3 ratio.
With `UAUUCGUGUCAUACCAGCAUAUUAACCUCUCGUCUGUGCACAGCUUCAAAUGUUACCGUCUAGUUAGAUUUUUAUUUAAAAUAUGAAAAACUGCUUUUCCCAAGACGUUUUUUAAAAACA` the bound/input enrichment was 1.28 ratio.
`AAAACCCCGAUUUUAGAUGUGAUAUUUAGGCUUUCAUUCCAGUUUGUUUUGUUUUUUGUUUAGAUACCAAUCUUUUAAAUUCUUGCAUUUUAGUAAGAAAGCUACCUUUUUAUGGAUGUU` has a bound/input enrichment of 1.18 ratio.
With `UUACAGUCAUUGAUGGACUCUAUUUUUUUAUUAUUACUUGGACCUUGGUCGUUUUUAUACUAGCAAUGAAAAUGUCUUGUUUUAAUUUUGUUUUUGGGGUGGGGGGUGGGAAAUGUCUUG` the bound/input enrichment was 1.19 ratio.

Set 2
Target: PABPC1L2, full length, GST fusion (mouse, UniProt A0ABA7IW68)
Technique: RNAcompete
Form: RNA
Medium: in vitro
Tested at: 20 nM
Setting: 7-mer, probes averaged, single round
Baseline: mean of 7-mers
Reading: higher = stronger binding
Target sequence (chain): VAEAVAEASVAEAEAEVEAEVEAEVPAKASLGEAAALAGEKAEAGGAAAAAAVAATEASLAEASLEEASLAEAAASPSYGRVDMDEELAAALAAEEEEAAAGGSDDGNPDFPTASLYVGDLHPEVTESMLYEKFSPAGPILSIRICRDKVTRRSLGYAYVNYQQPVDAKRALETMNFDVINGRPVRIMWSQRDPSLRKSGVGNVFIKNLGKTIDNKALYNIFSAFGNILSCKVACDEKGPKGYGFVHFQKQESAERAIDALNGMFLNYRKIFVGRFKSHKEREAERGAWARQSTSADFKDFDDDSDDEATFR
`CAUUUCA` gave a 7-mer Z-score of -0.226.
For `UCCAUCG`, the 7-mer Z-score was -0.28.
The 7-mer Z-score of `ACUUAAC` is reported as -0.0645.
With `CUUUUCG` the 7-mer Z-score was -0.273.
`CGUAUCA` gave a 7-mer Z-score of -0.162.
For `CGGUGCG`, the 7-mer Z-score was 0.0406.
The 7-mer Z-score of `CGAGUGA` is reported as 0.0805.
`UCACGCC` has a 7-mer Z-score of -0.269.
`UUACUCG` has a 7-mer Z-score of -0.242.

Set 3
Target: Centromere-binding protein 1, full length, His-tagged (CBF1, Saccharomyces cerevisiae, UniProt P17106, residues 1-351)
Chain of UniProt P17106 (whole entry, looked up): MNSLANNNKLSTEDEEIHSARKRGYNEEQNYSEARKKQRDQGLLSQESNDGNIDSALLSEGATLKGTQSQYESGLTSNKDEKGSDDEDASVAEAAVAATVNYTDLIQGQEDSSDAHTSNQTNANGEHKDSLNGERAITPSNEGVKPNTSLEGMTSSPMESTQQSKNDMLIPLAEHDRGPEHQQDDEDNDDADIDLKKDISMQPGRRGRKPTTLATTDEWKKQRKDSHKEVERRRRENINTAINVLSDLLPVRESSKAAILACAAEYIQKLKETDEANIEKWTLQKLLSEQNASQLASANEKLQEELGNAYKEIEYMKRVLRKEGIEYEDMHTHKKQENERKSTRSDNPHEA
Technique: competition protein-binding microarray
Form: double-stranded DNA, one strand shown
Medium: in vitro
Tested at: 2 µM
Setting: whole 60-bp probe, lowest competitor level
With: Pho4 competitor, 0.05 µM
Reading: higher = stronger binding
All sequences stand within: … GTCTTGATTCGCTTGACGCTGCTG
`CGGGGTTAAGTTTTTCACGTGAACTGCTTGCAGCAG` has a fluorescence intensity of 806 a.u.
`TTGCATTTCGGGCCTTTCGTGCCGAACTTTGCCAGT` gave a fluorescence intensity of 70.4 a.u.
`AAAGCGGTAATTTGACTCGTGGGTGCAGATATCTAT` has a fluorescence intensity of 113 a.u.
`CTTCTGTAAATTTGATTAGTGGGTGGACGCGCCCCG` has a fluorescence intensity of 79 a.u.
The fluorescence intensity of `CTTGGTCAATCAATCCACGTGAACCTCAACGCAGAT` is reported as 657 a.u.
`CTTCTGTAAATTTGGGCTGTGGGTGGACGCGCCCCG` gave a fluorescence intensity of 76.4 a.u.
With `AAAGCGGTAATTTGCGGTGTGGGTGCAGATATCTAT` the fluorescence intensity was 75.6 a.u.

Mixed results
With `PhoQ, residues 284 288 289 292 302 303 SLGVVW` the fold induction was 28.1 (PhoP, residues 12 14 15 18 19 VQALL (Escherichia coli, UniProt P23836); Sort-seq, measured: YFP reporter; E. coli; PhoQ-PhoP variant library, with: 10 µM Mg2+; baseline: high Mg2+ state, higher = stronger signaling).

Repeated from above (set 2):
For `UCCAUCG`, the 7-mer Z-score was -0.28.
With `CUUUUCG` the 7-mer Z-score was -0.273.
